Published values of several laboratories.
Each numbered part is a random draw from the data of one study; scales do not carry over between parts. pKi: −log10 of the molar value.
UniProt P35348, sequence (whole entry, looked up): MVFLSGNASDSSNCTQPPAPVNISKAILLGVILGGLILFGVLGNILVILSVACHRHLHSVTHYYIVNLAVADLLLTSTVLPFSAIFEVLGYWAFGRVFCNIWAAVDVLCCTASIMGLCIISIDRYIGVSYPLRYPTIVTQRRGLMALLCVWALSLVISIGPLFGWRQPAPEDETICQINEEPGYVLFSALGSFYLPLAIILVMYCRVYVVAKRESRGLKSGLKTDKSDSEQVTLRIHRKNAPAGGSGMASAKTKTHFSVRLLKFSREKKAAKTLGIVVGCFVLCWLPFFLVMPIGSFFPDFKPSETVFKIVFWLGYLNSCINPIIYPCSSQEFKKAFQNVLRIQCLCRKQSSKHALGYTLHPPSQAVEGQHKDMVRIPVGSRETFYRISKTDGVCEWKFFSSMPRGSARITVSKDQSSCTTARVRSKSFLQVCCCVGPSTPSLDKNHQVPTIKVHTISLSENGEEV
UniProt O95835, sequence (whole entry, looked up): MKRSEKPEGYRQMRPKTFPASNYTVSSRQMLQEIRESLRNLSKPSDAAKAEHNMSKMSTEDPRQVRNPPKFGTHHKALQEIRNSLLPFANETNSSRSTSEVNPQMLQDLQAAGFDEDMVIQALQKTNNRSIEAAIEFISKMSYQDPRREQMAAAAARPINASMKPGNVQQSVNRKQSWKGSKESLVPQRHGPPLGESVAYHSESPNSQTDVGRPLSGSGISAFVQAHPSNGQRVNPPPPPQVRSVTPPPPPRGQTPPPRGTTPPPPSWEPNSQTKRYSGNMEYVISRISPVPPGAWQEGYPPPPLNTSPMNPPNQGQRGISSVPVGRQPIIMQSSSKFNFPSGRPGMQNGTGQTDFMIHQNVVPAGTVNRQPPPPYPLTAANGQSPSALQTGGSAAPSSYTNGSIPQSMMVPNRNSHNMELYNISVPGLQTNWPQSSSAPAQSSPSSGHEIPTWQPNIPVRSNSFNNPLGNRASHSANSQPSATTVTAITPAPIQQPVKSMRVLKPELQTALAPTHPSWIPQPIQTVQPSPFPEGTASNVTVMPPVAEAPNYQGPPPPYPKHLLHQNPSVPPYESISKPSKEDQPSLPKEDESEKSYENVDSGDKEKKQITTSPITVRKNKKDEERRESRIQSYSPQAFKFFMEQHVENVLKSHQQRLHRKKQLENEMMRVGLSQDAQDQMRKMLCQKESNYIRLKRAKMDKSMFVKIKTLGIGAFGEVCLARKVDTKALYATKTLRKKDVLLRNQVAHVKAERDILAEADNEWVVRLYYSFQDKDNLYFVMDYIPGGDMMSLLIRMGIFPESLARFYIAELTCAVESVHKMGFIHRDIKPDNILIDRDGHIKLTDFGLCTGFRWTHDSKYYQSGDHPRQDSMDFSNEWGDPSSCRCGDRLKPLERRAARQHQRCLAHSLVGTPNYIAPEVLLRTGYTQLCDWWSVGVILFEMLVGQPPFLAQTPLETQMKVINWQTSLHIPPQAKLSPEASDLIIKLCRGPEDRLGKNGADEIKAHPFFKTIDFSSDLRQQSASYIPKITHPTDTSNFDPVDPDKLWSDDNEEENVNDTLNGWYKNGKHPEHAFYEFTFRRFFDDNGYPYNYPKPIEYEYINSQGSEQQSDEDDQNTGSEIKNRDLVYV
UniProt P22612, sequence (whole entry, looked up): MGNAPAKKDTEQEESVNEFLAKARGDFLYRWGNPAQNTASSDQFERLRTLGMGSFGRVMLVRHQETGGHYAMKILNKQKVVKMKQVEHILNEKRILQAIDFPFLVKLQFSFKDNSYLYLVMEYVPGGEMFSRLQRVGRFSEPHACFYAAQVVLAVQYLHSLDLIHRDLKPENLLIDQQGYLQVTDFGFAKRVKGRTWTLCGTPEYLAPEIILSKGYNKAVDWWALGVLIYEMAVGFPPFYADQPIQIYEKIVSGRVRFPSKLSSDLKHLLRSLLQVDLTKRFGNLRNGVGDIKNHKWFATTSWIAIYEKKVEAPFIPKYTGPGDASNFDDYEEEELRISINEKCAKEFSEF
UniProt O95819, sequence (whole entry, looked up): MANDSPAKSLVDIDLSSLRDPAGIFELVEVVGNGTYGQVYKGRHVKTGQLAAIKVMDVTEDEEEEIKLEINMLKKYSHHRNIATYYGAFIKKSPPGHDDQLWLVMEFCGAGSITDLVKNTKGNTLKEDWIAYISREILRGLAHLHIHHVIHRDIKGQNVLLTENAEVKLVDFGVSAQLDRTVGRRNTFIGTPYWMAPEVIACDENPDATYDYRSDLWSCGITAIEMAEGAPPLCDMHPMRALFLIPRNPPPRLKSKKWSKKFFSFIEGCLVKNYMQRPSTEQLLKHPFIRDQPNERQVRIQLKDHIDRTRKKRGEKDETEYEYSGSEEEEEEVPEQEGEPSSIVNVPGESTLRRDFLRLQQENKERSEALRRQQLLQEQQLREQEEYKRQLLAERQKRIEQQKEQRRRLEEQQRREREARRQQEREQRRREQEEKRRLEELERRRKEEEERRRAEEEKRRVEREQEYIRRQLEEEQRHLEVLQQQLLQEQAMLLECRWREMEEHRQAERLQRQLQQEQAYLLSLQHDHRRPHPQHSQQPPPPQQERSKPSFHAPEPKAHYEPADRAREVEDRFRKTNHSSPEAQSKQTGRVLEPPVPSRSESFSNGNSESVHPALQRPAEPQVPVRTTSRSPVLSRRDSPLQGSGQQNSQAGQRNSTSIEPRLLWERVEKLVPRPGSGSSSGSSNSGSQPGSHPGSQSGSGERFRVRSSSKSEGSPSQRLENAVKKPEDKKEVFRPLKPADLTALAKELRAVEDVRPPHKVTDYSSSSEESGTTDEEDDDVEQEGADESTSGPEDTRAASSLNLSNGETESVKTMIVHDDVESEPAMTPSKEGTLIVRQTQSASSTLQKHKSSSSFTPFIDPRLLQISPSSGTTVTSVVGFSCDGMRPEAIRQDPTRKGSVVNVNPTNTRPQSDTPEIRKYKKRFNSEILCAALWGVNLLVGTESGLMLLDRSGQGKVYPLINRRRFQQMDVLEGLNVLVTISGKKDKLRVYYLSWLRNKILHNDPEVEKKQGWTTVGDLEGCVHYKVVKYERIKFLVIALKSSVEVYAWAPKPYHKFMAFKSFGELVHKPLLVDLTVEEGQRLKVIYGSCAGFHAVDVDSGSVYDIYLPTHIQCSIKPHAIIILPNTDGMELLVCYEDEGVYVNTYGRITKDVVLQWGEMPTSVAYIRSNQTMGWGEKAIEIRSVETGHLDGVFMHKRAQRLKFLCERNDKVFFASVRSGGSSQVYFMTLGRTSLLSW
UniProt O43781, sequence (whole entry, looked up): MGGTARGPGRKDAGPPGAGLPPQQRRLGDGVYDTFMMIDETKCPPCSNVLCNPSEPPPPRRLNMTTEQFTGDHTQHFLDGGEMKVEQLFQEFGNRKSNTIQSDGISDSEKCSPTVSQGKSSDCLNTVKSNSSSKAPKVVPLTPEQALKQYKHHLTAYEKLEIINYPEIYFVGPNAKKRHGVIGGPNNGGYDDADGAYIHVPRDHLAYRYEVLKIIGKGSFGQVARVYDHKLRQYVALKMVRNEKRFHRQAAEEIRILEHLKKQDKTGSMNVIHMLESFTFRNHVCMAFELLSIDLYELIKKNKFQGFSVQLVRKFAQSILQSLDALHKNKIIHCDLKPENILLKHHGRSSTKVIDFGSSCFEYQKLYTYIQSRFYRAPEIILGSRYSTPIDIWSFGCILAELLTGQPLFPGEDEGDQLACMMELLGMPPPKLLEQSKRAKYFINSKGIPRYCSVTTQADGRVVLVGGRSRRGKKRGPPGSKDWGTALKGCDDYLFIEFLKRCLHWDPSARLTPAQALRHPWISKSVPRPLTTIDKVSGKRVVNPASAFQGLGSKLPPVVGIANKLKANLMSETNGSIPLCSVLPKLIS
UniProt Q5BJF2, sequence (whole entry, looked up): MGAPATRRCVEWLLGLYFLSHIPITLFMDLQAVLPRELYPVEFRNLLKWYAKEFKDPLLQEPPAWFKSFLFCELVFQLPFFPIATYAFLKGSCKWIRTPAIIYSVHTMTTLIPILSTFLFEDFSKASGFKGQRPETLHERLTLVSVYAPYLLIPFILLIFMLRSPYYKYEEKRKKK

Sample 1 — observed: enzyme activity; mode: inhibitor; concentration: 0.5 µM; relative to: control
Target: Serine/threonine-protein kinase haspin (HASPIN, Homo sapiens, UniProt Q8TF76)
UniProt Q8TF76, sequence (whole entry, looked up): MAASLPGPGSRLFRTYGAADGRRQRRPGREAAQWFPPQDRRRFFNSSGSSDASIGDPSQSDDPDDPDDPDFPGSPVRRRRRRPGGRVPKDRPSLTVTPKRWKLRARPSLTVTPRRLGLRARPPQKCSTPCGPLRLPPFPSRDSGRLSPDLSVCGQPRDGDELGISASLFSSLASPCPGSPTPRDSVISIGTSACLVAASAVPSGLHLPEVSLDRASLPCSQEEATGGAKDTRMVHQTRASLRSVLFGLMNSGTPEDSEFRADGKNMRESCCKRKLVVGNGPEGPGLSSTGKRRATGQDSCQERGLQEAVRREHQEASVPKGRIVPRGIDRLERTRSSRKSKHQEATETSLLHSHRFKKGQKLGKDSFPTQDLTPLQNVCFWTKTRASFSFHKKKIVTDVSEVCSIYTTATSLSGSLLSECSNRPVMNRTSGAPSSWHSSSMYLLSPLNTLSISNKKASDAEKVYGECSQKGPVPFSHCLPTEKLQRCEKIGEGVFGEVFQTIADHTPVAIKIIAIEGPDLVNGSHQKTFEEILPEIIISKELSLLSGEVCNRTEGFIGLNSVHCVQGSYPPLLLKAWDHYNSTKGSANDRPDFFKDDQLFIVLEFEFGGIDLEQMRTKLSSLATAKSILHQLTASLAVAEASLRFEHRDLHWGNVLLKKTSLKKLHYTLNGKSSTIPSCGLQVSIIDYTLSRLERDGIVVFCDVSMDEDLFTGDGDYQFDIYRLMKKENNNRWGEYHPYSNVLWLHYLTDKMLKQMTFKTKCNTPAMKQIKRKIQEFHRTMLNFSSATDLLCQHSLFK
For O=C1NC(=O)C(c2c[nH]c3ccccc23)=C1c1c[nH]c2ccccc12, the remaining activity was 84.7%.
The remaining activity of Cc1cncc2cccc(S(=O)(=O)N3CCCN(C(=O)CN)C[C@@H]3C)c12 is reported as 99.4%.
Oc1ccc(Nc2nc(-c3ccc(Cl)cc3)cs2)cc1 gave a remaining activity of 100%.
For CC[n+]1c(/C=C/N(C)c2ccccc2)n(-c2ccccc2)c2ccc(-c3nc4ccccc4s3)cc21, the remaining activity was 110%.
The remaining activity of O=S(=O)(NCCNC/C=C/c1ccc(Br)cc1)c1cccc2cnccc12 is reported as 55.1%.
The remaining activity of Cc1cc(Nc2nc(-c3ccccc3)nc3ccccc23)n[nH]1 is reported as 90.5%.
CC(C)(C)n1nc(Cc2cccc3ccccc23)c2c(N)ncnc21 has a remaining activity of 57.1%.
COc1cc(Nc2c(C#N)cnc3cc(OCCCN4CCN(C)CC4)c(OC)cc23)c(Cl)cc1Cl has a remaining activity of 65.6%.
For Nc1ncnc2c1cnn2-c1ccccc1, the remaining activity was 94.8%.
For O=C1Cc2c([nH]c3ccc([N+](=O)[O-])cc23)-c2ccccc2N1, the remaining activity was 106%.
Nc1nc(Nc2ccc(S(N)(=O)=O)cc2)nn1C(=O)c1c(F)cccc1F gave a remaining activity of 107%.

Sample 2 — species: mouse; matrix: microsomes or S9; concentration: 2 µM; time: 0.5 h
For COCc1cc(=O)n2c(n1)N(Cc1cccc(C#N)c1)CC2, the remaining compound was 87.6%.
CCOc1ccc(C(=O)C2=CN(c3ccc(C#N)cc3)c3ccccc3S2(=O)=O)cc1 gave a remaining compound of 33%.
Cc1nc2ccccc2c(=O)n1-c1ccc(Cl)c(O[C@H]2CCN(C)C2)c1 gave a remaining compound of 67.7%.
Cc1noc(C)c1S(=O)(=O)N1CCC(OCc2noc(C3CCCO3)n2)CC1 (stereo not shown) gave a remaining compound of 2.65%.
With Cc1nc(O)[nH]c(=O)c1S(=O)(=O)Nc1ccccc1C(=O)NCc1ccccc1 the remaining compound was 98.9%.
The remaining compound of CC(C)CCn1c(N)nc2c1c(=O)nc(O)n2C is reported as 79%.
With CC(C)OC(=O)c1ccc(NC(=O)CCCC(=O)O)cc1 the remaining compound was 97.7%.
Cn1ccnc1/C=N/Nc1nncc2ccccc12 has a remaining compound of 10.4%.
The remaining compound of Fc1cc(F)cc(-c2cncc(COc3ccccc3)c2)c1 is reported as 0.0868%.
For CCOc1ccc(-c2nnc3c4cc(OC)c(OC)cc4n(Cc4ccc(Cl)cc4)cc2-3)cc1, the remaining compound was 95.2%.
With Cc1ccccc1C1CC(=O)c2c(C)nc(N)nc2C1 (stereo not shown) the remaining compound was 16.4%.

Sample 3 — observed: binding
Structure (SMILES): COc1cc(-c2cn(C3CCc4ccccc4N(CC(F)(F)F)C3=O)nn2)ccc1-n1ccc(C)n1 (stereo not shown)
It gave under 5.00 for pKi (Alpha-1B adrenergic receptor (ADRA1B, Homo sapiens, UniProt P35368); radioligand binding).
The pKi was 6.08 (Sigma intracellular receptor 2 (TMEM97, Homo sapiens, UniProt Q5BJF2)).
The pKi was 5.86 (Alpha-1A adrenergic receptor (ADRA1A, Homo sapiens, UniProt P35348)).

Sample 4 — observed: enzyme activity; concentration: 10 µM
Compound: Cc1sc(C(=O)NC2COC2)cc1-n1cc(NC(=O)Nc2c(F)cccc2Cl)cn1
It gave 96.6% for remaining activity (Serine/threonine-protein kinase LATS1 (LATS1, Homo sapiens, UniProt O95835); relative to: untreated control).
Mitogen-activated protein kinase kinase kinase 21 (MAP3K21, Homo sapiens, UniProt Q5TCX8); inhibitor — remaining activity: 85.2%.
It gave 104% for remaining activity (Serine/threonine-protein kinase PLK1 (PLK1, Homo sapiens, UniProt P53350); relative to: untreated control).
It gave 92.7% for remaining activity (Mitogen-activated protein kinase kinase kinase kinase 4 (MAP4K4, Homo sapiens, UniProt O95819); relative to: untreated control).
The remaining activity was 95.4% (Serine/threonine-protein kinase SIK1 (SIK1, Homo sapiens, UniProt P57059); relative to: untreated control).
Ephrin type-A receptor 4 (EPHA4, Homo sapiens, UniProt P54764); relative to: untreated control — remaining activity: 113%.
It gave 99% for remaining activity (cAMP-dependent protein kinase catalytic subunit gamma (PRKACG, Homo sapiens, UniProt P22612); inhibitor).
It gave 88.2% for remaining activity (Myosin-IIIa (MYO3A, Homo sapiens, UniProt Q8NEV4); relative to: untreated control).
Dual specificity tyrosine-phosphorylation-regulated kinase 3 (DYRK3, Homo sapiens, UniProt O43781); relative to: untreated control — remaining activity: 99.2%.

For quick reference, copied from above (sample 2):
The remaining compound of CC(C)CCn1c(N)nc2c1c(=O)nc(O)n2C is reported as 79%.
With CC(C)OC(=O)c1ccc(NC(=O)CCCC(=O)O)cc1 the remaining compound was 97.7%.
Cn1ccnc1/C=N/Nc1nncc2ccccc12 has a remaining compound of 10.4%.
The remaining compound of Fc1cc(F)cc(-c2cncc(COc3ccccc3)c2)c1 is reported as 0.0868%.
